# Measured values from different studies.
# Each numbered part is a random draw from the data of one study; scales do not carry over between parts. Values joined by “and” are separate records of one study, mostly repeats; a detail may differ.
# Chain of UniProt Q15418 (whole entry, looked up): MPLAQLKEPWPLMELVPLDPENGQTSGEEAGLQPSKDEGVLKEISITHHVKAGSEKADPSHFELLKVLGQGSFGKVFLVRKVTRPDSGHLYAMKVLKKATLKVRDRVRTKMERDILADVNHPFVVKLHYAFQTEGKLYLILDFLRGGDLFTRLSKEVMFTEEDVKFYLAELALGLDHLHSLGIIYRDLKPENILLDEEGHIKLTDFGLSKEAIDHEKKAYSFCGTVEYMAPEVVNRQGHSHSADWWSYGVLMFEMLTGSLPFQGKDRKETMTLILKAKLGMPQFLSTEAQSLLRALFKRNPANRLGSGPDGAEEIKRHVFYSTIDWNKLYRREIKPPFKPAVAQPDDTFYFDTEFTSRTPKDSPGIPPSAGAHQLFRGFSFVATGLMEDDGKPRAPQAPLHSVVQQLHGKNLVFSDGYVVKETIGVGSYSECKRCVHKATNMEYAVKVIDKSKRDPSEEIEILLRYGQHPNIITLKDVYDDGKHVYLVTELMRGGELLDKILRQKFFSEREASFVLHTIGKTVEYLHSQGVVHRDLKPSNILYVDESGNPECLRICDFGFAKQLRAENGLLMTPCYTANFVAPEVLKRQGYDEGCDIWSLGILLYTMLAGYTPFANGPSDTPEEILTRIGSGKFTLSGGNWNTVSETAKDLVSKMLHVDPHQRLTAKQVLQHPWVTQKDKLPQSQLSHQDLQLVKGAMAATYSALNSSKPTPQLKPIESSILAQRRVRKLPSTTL
# Chain of UniProt P35590 (whole entry, looked up): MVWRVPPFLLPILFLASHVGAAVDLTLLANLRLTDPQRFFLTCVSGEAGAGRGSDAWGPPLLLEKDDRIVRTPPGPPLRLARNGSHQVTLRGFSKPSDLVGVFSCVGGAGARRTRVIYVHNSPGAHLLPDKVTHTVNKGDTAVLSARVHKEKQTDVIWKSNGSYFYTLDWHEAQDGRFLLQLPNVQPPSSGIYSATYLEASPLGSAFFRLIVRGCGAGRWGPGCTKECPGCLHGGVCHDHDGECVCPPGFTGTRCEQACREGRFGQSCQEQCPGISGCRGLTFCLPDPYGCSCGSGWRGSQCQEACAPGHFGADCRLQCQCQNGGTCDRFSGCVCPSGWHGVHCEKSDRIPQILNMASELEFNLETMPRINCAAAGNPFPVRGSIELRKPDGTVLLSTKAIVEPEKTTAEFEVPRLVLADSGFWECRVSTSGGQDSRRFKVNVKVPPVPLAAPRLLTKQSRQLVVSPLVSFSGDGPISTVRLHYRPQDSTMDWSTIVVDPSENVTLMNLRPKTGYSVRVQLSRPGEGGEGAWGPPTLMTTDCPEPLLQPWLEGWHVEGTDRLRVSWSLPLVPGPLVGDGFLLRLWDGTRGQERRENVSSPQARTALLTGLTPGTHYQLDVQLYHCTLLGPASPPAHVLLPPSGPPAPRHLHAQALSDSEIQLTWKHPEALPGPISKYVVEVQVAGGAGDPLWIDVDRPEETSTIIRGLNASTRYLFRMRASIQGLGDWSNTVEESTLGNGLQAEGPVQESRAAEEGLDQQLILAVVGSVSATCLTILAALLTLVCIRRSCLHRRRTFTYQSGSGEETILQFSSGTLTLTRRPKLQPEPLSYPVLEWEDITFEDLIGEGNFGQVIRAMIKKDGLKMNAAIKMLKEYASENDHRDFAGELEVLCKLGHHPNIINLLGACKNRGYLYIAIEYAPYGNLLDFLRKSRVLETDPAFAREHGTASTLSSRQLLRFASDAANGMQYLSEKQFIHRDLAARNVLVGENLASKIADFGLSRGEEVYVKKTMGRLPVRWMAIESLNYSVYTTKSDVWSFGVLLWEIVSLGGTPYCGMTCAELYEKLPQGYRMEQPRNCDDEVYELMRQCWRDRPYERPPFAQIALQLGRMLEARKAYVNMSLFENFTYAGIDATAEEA
# Chain of UniProt Q7KZI7 (whole entry, looked up): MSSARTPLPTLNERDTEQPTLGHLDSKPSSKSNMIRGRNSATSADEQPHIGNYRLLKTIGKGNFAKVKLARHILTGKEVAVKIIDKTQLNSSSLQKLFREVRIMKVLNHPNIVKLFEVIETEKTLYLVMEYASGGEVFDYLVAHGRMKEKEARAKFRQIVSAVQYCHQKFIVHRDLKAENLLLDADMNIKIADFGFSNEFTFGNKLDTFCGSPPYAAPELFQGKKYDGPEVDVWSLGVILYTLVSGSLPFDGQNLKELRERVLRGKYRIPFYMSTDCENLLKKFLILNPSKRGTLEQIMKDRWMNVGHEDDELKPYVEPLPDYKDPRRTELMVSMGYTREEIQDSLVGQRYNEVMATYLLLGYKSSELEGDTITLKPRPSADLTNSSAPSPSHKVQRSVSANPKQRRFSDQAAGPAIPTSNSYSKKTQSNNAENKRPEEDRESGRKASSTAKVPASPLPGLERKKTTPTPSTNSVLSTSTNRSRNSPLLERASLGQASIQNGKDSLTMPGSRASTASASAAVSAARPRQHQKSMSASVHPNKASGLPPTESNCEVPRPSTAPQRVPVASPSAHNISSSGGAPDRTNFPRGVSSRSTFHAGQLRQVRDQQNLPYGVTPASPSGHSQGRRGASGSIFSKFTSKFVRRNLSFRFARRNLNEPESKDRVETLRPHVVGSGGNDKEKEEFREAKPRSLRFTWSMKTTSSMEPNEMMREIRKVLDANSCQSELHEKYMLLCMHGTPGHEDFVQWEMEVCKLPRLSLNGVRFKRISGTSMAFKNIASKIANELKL
# Chain of UniProt Q9Y2U5 (whole entry, looked up): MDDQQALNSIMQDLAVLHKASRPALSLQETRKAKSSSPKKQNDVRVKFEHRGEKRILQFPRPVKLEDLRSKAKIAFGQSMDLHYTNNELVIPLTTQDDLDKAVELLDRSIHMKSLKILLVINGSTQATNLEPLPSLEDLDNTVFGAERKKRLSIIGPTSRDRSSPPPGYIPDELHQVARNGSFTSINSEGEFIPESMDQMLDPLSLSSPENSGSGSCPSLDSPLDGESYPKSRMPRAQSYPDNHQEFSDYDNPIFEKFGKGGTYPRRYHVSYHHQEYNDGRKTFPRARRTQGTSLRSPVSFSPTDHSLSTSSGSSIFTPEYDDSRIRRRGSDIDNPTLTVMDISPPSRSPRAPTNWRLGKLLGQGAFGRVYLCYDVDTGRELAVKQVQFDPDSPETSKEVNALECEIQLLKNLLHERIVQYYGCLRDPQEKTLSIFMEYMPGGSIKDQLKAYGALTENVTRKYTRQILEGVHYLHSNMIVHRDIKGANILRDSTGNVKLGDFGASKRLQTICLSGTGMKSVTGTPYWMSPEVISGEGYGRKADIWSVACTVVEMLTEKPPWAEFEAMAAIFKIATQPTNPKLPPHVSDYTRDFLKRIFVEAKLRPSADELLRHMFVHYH

# Series 1
# Compound: COc1cc(C(=O)N2CCC(N3CCN(C)CC3)CC2)ccc1Nc1ncc2c(n1)N(C)c1ccccc1C(=O)N2C
target,test,test system,conditions,inhibition [%]
NDR1 (human),"probe labelling, KiNativ ADP probe",human PBMC lysate,"concentration not given, LYS1 labelled site",-2.5
TLK1 and TLK2 (human),"probe labelling, KiNativ, measured: Lys2 site peptide",PBMC lysate (human),"0.1 µM, added: ATP acyl-phosphate probe",9.1
CaMK2a (mouse),"probe labelling, KiNativ, measured: Lys1 site peptide",brain tissue lysate (mouse),"1 µM, added: ATP acyl-phosphate probe",14.6
CaMK1b (mouse),"probe labelling, KiNativ, measured: Lys1 site peptide",brain tissue lysate (mouse),"0.1 µM, added: ADP acyl-phosphate probe",-9.3
LCK human,KiNativ profiling,human PBMC,"concentration not given, activation loop site, added: ATP acyl phosphate probe",2.1
p38beta human,KiNativ profiling,human PBMC lysate,"concentration not given, ATP probe, other site",-21.4

# Series 2 — effect on: enzyme activity; action: inhibitor; concentration: 0.5 µM; baseline: control
# Target: Ephrin type-A receptor 2 (EPHA2, Homo sapiens, UniProt P29317)
# Chain of UniProt P29317 (whole entry, looked up): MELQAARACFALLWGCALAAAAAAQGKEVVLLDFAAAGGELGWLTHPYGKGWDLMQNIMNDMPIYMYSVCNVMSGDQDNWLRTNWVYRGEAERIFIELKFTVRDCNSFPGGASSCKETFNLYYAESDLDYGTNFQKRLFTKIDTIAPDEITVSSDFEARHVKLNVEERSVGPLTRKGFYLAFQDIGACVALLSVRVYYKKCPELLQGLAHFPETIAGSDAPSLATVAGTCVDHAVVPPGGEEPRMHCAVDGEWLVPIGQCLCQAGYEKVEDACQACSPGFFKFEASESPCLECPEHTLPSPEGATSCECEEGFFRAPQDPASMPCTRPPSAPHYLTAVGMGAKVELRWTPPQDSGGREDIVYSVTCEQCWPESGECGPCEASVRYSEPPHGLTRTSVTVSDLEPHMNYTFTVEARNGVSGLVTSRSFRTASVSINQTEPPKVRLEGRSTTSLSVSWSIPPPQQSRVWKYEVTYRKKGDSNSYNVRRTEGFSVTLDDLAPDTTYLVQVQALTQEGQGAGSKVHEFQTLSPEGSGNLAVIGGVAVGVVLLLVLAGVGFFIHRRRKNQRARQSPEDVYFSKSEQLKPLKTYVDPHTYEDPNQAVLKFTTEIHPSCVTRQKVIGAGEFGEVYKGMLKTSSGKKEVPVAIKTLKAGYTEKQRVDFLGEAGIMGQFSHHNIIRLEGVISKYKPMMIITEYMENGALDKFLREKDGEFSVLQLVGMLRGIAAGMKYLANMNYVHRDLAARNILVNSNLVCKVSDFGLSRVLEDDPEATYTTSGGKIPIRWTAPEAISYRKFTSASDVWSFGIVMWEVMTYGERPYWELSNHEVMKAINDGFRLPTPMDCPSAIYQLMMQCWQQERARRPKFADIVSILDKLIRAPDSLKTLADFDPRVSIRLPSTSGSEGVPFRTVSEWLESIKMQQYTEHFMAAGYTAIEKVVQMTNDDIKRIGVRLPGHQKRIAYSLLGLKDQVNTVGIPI
Structure (SMILES),remaining activity [%]
O=C1NC(=O)C(c2cn(CCCO)c3ncccc23)=C1c1cnccn1,105
O=C1NC(=O)C(c2cn(CCCn3ccnc3)c3ccccc23)=C1Nc1ccccc1,101
COc1ccc(C(=O)Nc2sc3c(c2C(N)=O)CCCC3)cc1OC,102
Cc1nc(-c2ccccc2)c(-c2ccncc2)o1,104
Nc1ccc2ncnc(NCCc3ccc(Oc4ccccc4)cc3)c2c1,103
O=C(O)c1ccc2c3c1cccc3c(=O)n1c3ccccc3nc21,102
Cn1sc(=O)n(Cc2ccccc2)c1=O,96.5
O=c1c2ccccc2[nH]c(=S)n1CCN1CCC(=C(c2ccc(F)cc2)c2ccc(F)cc2)CC1,105
Cn1c2ccccc2c2c3c(c4c5ccccc5n(CCC#N)c4c21)CNC3=O,92.5
CN(C)c1ccc(C=C2C(=O)Nc3ccccc32)cc1,107
COc1ccc(OC)c2c(=S)c3ccccc3[nH]c12,100
COc1cc2ncnc(Nc3ccc(F)c(Cl)c3)c2cc1OCCCN1CCOCC1,85.7
Nc1[nH]nc2nc3ccccc3nc12,98.5
OCC(O)CCON=C1C(c2c(O)[nH]c3ccccc23)=Nc2ccccc21 (stereo not drawn),65.3
O=S(=O)(c1cccc2cnccc12)N1CCCNCC1,102

# Series 3 — cell line: mouse MPNST tumor cells; method: high-content nuclear imaging; measured: cell number; concentration: 10 µM; time: 12 h; notes: mean of 2 replicates; baseline: plate mean; direction: higher = more cells
Structure (SMILES),nuclei count
CC(NCCc1ccc(O)cc1)C(O)c1ccc(O)cc1 (stereo not drawn),0.505 z-score
O=C(COCC(=O)N1CCN(C(c2ccccc2)c2ccccc2)CC1)Nc1ccc(Cl)cc1C(=O)O,1.93 z-score
CNc1ncnc2c1ncn2C1OC(CO)C(O)C1O (stereo not drawn),-1.56 z-score
CC(=O)NCCCS(=O)(=O)O,-0.475 z-score and 0.346 z-score
CCCCCCCCCCCCCCCC[N+](C)(C)CCN(Cc1ccc(OC)cc1)c1ncccn1,-3.83 z-score
O=C(Nc1ccccc1)C12CC1C(=NO)c1ccccc1O2 (stereo not drawn),4.13 z-score
Cc1cnc(-c2ccccc2C(C)C)nc1NCc1ccc(-n2ccnn2)cc1,0.1 z-score

# Series 4 — effect on: cell-free assay; method: competition with immobilised ligand; concentration: 1 µM
# Compound: CN(c1ccnc(CNc2nc(Nc3ccc4c(c3)CC(=O)N4)ncc2C(F)(F)F)n1)S(C)(=O)=O
target,remaining binding
"Tyrosine-protein kinase receptor Tie-1 (TIE1, Homo sapiens, UniProt P35590)",17%
"Serine/threonine-protein kinase MARK2 (MARK2, Homo sapiens, UniProt Q7KZI7)",47%
"Tyrosine-protein kinase ABL1, non-phosphorylated (ABL1, Homo sapiens, UniProt P00519, Q252H)",94%
"Mitogen-activated protein kinase kinase kinase 2 (MAP3K2, Homo sapiens, UniProt Q9Y2U5)",9.7%
"Ribosomal protein S6 kinase alpha-1, C-terminal kinase domain (RPS6KA1, Homo sapiens, UniProt Q15418)",68%

# A few entries again (series 2):
Structure (SMILES),remaining activity [%]
O=c1c2ccccc2[nH]c(=S)n1CCN1CCC(=C(c2ccc(F)cc2)c2ccc(F)cc2)CC1,105
Cn1c2ccccc2c2c3c(c4c5ccccc5n(CCC#N)c4c21)CNC3=O,92.5
CN(C)c1ccc(C=C2C(=O)Nc3ccccc32)cc1,107
COc1ccc(OC)c2c(=S)c3ccccc3[nH]c12,100
COc1cc2ncnc(Nc3ccc(F)c(Cl)c3)c2cc1OCCCN1CCOCC1,85.7
